Published values gathered from unrelated publications.
Lines come from different studies, so protocols differ.
Target: 3-phosphoinositide-dependent protein kinase 1 (PDPK1, Homo sapiens, UniProt O15530)
Residues used in one study (O15530 1-556): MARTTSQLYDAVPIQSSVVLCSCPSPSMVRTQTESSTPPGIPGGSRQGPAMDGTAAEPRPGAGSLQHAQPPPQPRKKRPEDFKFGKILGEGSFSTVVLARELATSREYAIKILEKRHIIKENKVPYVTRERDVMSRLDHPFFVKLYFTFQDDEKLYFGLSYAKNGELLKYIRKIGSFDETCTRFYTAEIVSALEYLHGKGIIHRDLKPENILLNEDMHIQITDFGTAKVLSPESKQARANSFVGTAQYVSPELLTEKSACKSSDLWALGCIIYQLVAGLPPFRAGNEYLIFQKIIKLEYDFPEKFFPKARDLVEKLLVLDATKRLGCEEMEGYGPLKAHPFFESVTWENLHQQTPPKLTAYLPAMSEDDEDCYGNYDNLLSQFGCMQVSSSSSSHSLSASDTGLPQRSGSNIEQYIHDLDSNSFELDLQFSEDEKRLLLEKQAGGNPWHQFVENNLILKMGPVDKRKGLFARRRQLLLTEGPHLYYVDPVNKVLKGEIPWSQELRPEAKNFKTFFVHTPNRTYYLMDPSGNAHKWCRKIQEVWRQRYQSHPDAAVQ

With `c1cnc2ccc(Nc3nc(NC4CC4)c4nc[nH]c4n3)cc2c1` the remaining activity was 77% (kinase activity, inhibitor, SelectScreen kinase profiling; 1 µM; baseline: control).
With `COc1cc(F)ccc1-c1ncnc(Nc2cccc(C[S@](C)(=N)=O)c2)n1` the remaining activity was 106% (kinase activity; 10 µM, together with: 10 µM ATP).
With `COc1cc(-c2cncc3c2CN(C)Cc2cc(N4CCNCC4)ccc2-3)cc(OC)c1OC` the remaining activity was 97% (kinase activity; 1 µM, human enzyme, together with: ATP 10 µM; baseline: DMSO control).
`COCCNc1nc2ccc(C#CC3(O)CCCCC3)cc2n1-c1ccnc(N)n1`: “remaining kinase activity” 13.7% (enzyme activity, inhibitor, Z'-LYTE; 1 µM; baseline: no-inhibitor control).
`O=C1NC(=O)/C(=C/c2ccc(-c3ccc(F)cc3O)o2)S1` has a remaining activity of 97% (enzyme activity; 10 µM).
`Cc1cc(Nc2cc(N3CCN(C)CC3)nc(Sc3ccc(NC(=O)C4CC4)cc3)n2)[nH]n1` has a remaining activity of 98% (kinase activity, KinaseProfiler; 0.03 µM, species human; baseline: control).
With `CNc1ncc2c(/C=C/C(=O)N3CCC(OC)CC3)nn(Cc3cccc(C(F)(F)F)c3)c2n1` the remaining activity was 97% (kinase activity, inhibitor; 1 µM; baseline: untreated control).
With `CC[C@@H]1[C@H](F)C(=O)N[C@@H]1COc1nccc2cc(C(N)=O)c(OC)cc12` the inhibition was 1.3% (ATP-site probe binding, ActivX profiling, measured: PDK1; THP-1 cell lysate; 0.01 mM, Lys1 site).

A few entries again:
`O=C1NC(=O)/C(=C/c2ccc(-c3ccc(F)cc3O)o2)S1` has a remaining activity of 97% (enzyme activity; 10 µM).
